{"data": "Experimental data of several laboratories", "note": "Each numbered part is a random draw from the data of one study; scales do not carry over between parts. Values joined by “and” are separate records of one study, mostly repeats; a detail may differ.", "chain of UniProt Q96SW2 (whole entry, looked up)": "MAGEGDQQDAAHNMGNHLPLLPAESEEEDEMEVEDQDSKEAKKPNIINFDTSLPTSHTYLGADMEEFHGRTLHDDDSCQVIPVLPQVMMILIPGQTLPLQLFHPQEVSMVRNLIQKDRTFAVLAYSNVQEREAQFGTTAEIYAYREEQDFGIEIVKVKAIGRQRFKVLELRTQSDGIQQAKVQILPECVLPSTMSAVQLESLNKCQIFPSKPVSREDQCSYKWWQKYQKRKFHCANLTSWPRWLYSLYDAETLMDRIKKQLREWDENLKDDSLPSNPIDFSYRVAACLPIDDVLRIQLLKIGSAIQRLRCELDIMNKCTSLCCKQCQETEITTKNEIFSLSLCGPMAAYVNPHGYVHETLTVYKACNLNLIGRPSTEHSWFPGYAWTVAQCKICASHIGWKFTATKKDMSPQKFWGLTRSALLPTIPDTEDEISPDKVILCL", "chain of UniProt Q9UKS7 (whole entry, looked up)": "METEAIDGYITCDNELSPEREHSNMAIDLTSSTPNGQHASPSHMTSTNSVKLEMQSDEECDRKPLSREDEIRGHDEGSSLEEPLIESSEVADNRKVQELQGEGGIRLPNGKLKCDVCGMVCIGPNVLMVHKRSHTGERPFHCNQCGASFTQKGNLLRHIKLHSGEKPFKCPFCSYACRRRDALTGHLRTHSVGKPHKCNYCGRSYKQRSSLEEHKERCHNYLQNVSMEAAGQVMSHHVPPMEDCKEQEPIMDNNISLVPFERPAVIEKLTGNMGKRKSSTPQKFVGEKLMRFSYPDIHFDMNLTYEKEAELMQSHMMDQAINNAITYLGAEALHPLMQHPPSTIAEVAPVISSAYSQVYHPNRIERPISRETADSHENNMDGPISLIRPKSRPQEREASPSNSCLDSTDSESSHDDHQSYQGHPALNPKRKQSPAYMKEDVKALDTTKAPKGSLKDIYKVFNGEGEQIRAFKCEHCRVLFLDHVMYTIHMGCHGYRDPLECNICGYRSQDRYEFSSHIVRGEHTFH"}
{"data": "Set 1", "target": "Muscarinic acetylcholine receptor M3 (CHRM3, Homo sapiens, UniProt P20309)", "observed": "ligand displacement", "tested at": "10 µM", "chain of UniProt P20309 (whole entry, looked up)": "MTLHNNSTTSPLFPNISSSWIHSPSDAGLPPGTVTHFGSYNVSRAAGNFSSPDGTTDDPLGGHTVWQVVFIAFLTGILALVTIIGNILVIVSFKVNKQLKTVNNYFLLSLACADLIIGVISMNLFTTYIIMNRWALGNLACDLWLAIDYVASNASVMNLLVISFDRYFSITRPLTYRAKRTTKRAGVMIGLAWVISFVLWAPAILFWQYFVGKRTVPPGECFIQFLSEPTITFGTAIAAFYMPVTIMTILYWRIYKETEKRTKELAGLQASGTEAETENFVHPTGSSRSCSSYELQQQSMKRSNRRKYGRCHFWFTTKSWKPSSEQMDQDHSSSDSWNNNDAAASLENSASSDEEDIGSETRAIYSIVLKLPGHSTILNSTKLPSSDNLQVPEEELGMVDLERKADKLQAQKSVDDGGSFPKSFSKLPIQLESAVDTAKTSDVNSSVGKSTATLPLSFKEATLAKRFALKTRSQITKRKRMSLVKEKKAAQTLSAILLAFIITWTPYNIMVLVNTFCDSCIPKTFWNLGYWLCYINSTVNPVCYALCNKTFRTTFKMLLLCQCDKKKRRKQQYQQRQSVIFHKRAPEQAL"}
{"Compound": "Cc1c(NC(=O)c2cc(C(N)=O)nc3cc(F)ccc23)c(C(F)(F)F)nn1Cc1ccc(C#N)cc1", "inhibition [%]": -6.5}
{"Compound": "COc1ccc2cc(OCC3(C(=O)O)CN(C(=O)c4ccc(F)cc4)C3)ccc2c1", "inhibition [%]": 19.2}
{"Compound": "CN([C@@H]1CCc2c(CC(=O)O)c3ccccc3n2C1)S(=O)(=O)c1ccc(F)cc1", "inhibition [%]": -17.2}
{"Compound": "CCOc1ccc(S(=O)(=O)Nc2ccc(Cl)cc2C#Cc2cnc(C(=O)O)cc2OC)c2ncccc12", "inhibition [%]": 9.34}
{"Compound": "O=C(NCCCC1CCCCC1)c1ccc(CNC(=O)c2cnn(-c3ccccc3)c2C(F)(F)F)cc1", "inhibition [%]": 19.5}
{"Compound": "CCc1ccccc1C(=O)Nc1n[nH]c2c(C)c(F)c(C3C(C#N)=C(C)N(C)C(C)=C3C#N)cc12", "inhibition [%]": 22.5}
{"Compound": "c1ccc(C2CCN(c3cnc4c(N5CCOCC5)nccn34)CC2)cc1", "inhibition [%]": -12.1}
{"Compound": "O=C(N[C@H]1CCCCC/C=C\\C2C[C@@]2(C(=O)O)NC(=O)[C@@H]2C[C@@H](Oc3ccncc3)CN2C1=O)OC1CCCC1 (stereo partly shown)", "inhibition [%]": -5.57}
{"Compound": "COc1cccc(NC(=O)c2nc3scc(CN(C)Cc4ccccc4)c3c(=O)[nH]2)c1", "inhibition [%]": -11.2}
{"Compound": "O=C1NC(c2ccccn2)Sc2ccccc21 (stereo not shown)", "inhibition [%]": -13.5}
{"Compound": "CNC(=O)Nc1ccc2c(c1)CC[C@]21OC(=O)N(CC(=O)N(Cc2ccc(F)cc2)[C@@H](C)C(F)(F)F)C1=O", "inhibition [%]": 9.06}
{"Compound": "C[C@H](c1ccc(F)cc1)N(Cc1cccc(C(=O)O)c1)C(=O)c1cnc2ccccc2c1", "inhibition [%]": -7.68}
{"Compound": "COCCOc1nc(-c2ccc(Cl)nc2)nc2c1CN(C(=O)c1ncn3ccccc13)CC2", "inhibition [%]": 3.95}
{"Compound": "O=c1nc(-c2ccccn2)sc2ccccc12", "inhibition [%]": -12.5}
{"data": "Set 2", "target": "Calcium/calmodulin-dependent protein kinase type II subunit alpha (CAMK2A, Homo sapiens, UniProt Q9UQM7)", "observed": "enzyme activity", "action": "inhibitor", "tested at": "10 µM", "chain of UniProt Q9UQM7 (whole entry, looked up)": "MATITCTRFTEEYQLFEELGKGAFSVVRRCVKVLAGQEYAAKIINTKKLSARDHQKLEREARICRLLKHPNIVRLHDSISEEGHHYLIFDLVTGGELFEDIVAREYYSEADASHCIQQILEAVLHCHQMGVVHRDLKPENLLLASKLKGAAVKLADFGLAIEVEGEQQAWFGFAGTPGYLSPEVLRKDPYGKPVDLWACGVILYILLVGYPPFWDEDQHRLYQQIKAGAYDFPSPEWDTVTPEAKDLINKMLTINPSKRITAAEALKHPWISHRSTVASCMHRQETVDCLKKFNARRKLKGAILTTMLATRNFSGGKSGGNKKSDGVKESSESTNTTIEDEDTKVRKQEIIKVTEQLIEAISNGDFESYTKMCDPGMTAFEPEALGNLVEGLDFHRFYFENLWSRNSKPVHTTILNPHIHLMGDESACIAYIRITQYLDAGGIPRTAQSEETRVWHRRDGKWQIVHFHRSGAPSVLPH"}
{"SMILES": "C=C1[C@H]2C[C@@]3([C@@H]1O)[C@@H](CC2=O)[C@]12[C@@H]4C[C@H]3[C@H]1N(CC)C[C@]4(C)CC[C@@H]2O", "inhibition [%]": 15}
{"SMILES": "O[C@H]1[C@H](O)[C@@H](O)CN2CC[C@H](O)[C@H]12", "inhibition [%]": -32}
{"SMILES": "Cc1ccc(C=O)cc1", "inhibition [%]": 2}
{"SMILES": "CC(C)=CCC[C@]1(C)C=Cc2c(O)c3c(c(CC=C(C)C)c2O1)O[C@]12C(=C[C@@H]4C[C@H]1C(C)(C)O[C@@]2(C/C=C(/C)C(=O)O)C4=O)C3=O", "inhibition [%]": -33}
{"SMILES": "CCN1C[C@]2(COC)[C@H](O)C[C@H](OC)[C@]34C1[C@H]([C@H](OC)[C@H]23)[C@]1(O)[C@H]2[C@@H](O)[C@](O)(C[C@H]24)[C@@H](OC)[C@@H]1O", "inhibition [%]": -4}
{"SMILES": "O=C(O)COc1ccccc1", "inhibition [%]": 11}
{"data": "Set 3", "Structure (SMILES)": "CC(=O)N[C@@H](Cc1c[nH]c2ccccc12)C(=O)N[C@@H](CCC(=O)C=[N+]=[N-])C(=O)OC(C)C"}
{"system": "C57BL/6 CES1-/- mouse, both sexes", "conditions": "0.3 mg/kg, day 9", "body weight": "100% and 95.7% and 96.4%"}
{"system": "C57BL/6 CES1-/- mouse, EL4 tumour", "conditions": "intravenous, 1 mg/kg DON equivalent, treatment day 14, 5 days per week", "how to read": "reference: baseline", "body weight": "110% and 93% and 100% and 96%"}
{"system": "C57BL/6 CES1-/- mouse, both sexes", "conditions": "1 mg/kg, day 17", "body weight": "105% and 90.9% and 89.7% and 95.5% and 100%"}
{"system": "C57BL/6 CES1-/- mouse, both sexes", "conditions": "1 mg/kg, day 16", "body weight": "100% and 90.9% and 93.1%"}
{"system": "C57BL/6 CES1-/- mouse, EL4 tumour", "conditions": "intravenous, 1 mg/kg DON equivalent, treatment day 16, 5 days per week", "how to read": "reference: baseline", "body weight": "93% and 96% and 100% and 92% and 110%"}
{"system": "C57BL/6 CES1-/- mouse, both sexes", "conditions": "0.1 mg/kg, day 18", "body weight": "104% and 100% and 105% and 96.2% and 114% and 118%"}
{"system": "C57BL/6 CES1-/- mouse, both sexes", "conditions": "0.3 mg/kg, day 7", "body weight": "100%"}
{"data": "Mixed results"}
{"Structure (SMILES)": "O=C1CCC(N2Cc3c(ccc4c3OCC43CCN(CC4CCCCC4)CC3)C2=O)C(=O)N1 (stereo not shown)", "target": "CRBN/Zinc finger protein Helios (Homo sapiens, UniProt Q96SW2+Q9UKS7)", "assay": "degrader, HiBiT", "system": "HEK293", "conditions": "0.1694 nM", "endpoint": "protein remaining", "value": "105%"}
{"note": "A few entries again (set 2):"}
{"SMILES": "Cc1ccc(C=O)cc1", "inhibition [%]": 2}
{"SMILES": "CC(C)=CCC[C@]1(C)C=Cc2c(O)c3c(c(CC=C(C)C)c2O1)O[C@]12C(=C[C@@H]4C[C@H]1C(C)(C)O[C@@]2(C/C=C(/C)C(=O)O)C4=O)C3=O", "inhibition [%]": -33}
{"SMILES": "CCN1C[C@]2(COC)[C@H](O)C[C@H](OC)[C@]34C1[C@H]([C@H](OC)[C@H]23)[C@]1(O)[C@H]2[C@@H](O)[C@](O)(C[C@H]24)[C@@H](OC)[C@@H]1O", "inhibition [%]": -4}
{"SMILES": "O=C(O)COc1ccccc1", "inhibition [%]": 11}
